Results gathered from unrelated publications.
Protocols differ between the studies behind these lines. “And” joins repeats or separate records; there may be more than shown. Numbers after ± are the reported error. Values after ≈ are worked out from the molar mass of the structure shown.

| SMILES | organism | test | system | conditions | scale | endpoint | result |
| --- | --- | --- | --- | --- | --- | --- | --- |
| c1ccc(CN2CCOCCOCCN(CCCCCCCCCCCCN3CCOCCOCCN(CCCCCCCCCCCCN4CCOCCOCCN(Cc5ccccc5)CCOCCOCC4)CCOCCOCC3)CCOCCOCC2)cc1 | Klebsiella pneumoniae | tetracycline MIC, checkerboard | ATCC BAA-2146 | half MIC, with: tetracycline | baseline: MIC alone over combination | fold enhancement | 8 fold |
| CC(C)C[C@@H]1NC(=O)[C@H](CCCCN)NC(=O)[C@H](C(C)C)NC(=O)[C@@H]2CCCN2C(=O)[C@@H](Cc2ccc(O)cc2)NC(=O)[C@H](CC(C)C)NC(=O)[C@H](CCCCN)NC(=O)[C@H](C(C)C)NC(=O)[C@H](CCCCN)NC(=O)[C@H](CC(C)C)NC(=O)[C@H](CCCCN)NC(=O)[C@@H]2CCCN2C(=O)[C@@H](Cc2ccc(O)cc2)NC(=O)[C@H](CCCCN)NC(=O)[C@H](C(C)C)NC(=O)[C@H](CCCCN)NC1=O | Gram-positive bacteria |  |  | 24 h, 7 strains |  | MIC geometric mean | 1.8 µg/mL (≈ 0.934 µM) |
| COc1ncccc1C(=O)Nc1ccccc1Nc1ccccc1 | Botrytis cinerea | microbial growth |  | 50 µg/mL |  | inhibition | 36.5% |
| O=[N+]([O-])c1ccc(/C=N/N=C/c2ccccc2)s1 | Trypanosoma brucei gambiense | parasite growth, CellTiter-Glo | IL1922 bloodstream form | 72 h |  | IC50 | 0.34 ± 0.01 µM |
| O=c1c(O)cccc(S(=O)(=O)Cc2ccccc2)c1O | Cryptococcus neoformans | microbial growth, broth dilution |  | 13 h |  | MIC80 | 50 µM (≈ 14.6 µg/mL) |
| COC(=O)c1c(C)cc(O)c(=O)c(O)c1O | herpes simplex virus 1 | viral replication |  | 5 µM |  | inhibition | inhibited |
| CCCCSc1cccc(O)c(=O)c1O | Hepatitis B virus | viral replication, inhibitor | HepDES19 |  |  | EC50 | 47 µM |
| O=[N+]([O-])c1ccc(/C=N/N=C/c2ccc(F)cc2)s1 | Trypanosoma brucei gambiense | parasite growth, CellTiter-Glo | IL1922 bloodstream form | 72 h |  | IC50 | 0.57 ± 0.08 µM |
| CC(=O)OC[C@H]1O[C@@H](Sc2sc(C(=O)c3ccc(Br)cc3)c(N)c2-c2nc3ccccc3s2)[C@H](OC(C)=O)[C@@H](OC(C)=O)[C@@H]1OC(C)=O | Hepatitis C virus |  | Huh7.5, genotype 4 | non-toxic dose NG, mean over three titres |  | viral reduction | 63.3% |
| CC(C)C[C@@H]1NC(=O)[C@H](CCCCN)NC(=O)[C@H](C(C)C)NC(=O)[C@@H]2CCCN2C(=O)[C@@H](Cc2ccc(O)cc2)NC(=O)[C@H](CC(C)C)NC(=O)[C@H](CCCCN)NC(=O)[C@H](C(C)C)NC(=O)[C@H](CCCCN)NC(=O)[C@H](CC(C)C)NC(=O)[C@H](CCCCN)NC(=O)[C@@H]2CCCN2C(=O)[C@@H](Cc2ccc(O)cc2)NC(=O)[C@H](CCCCN)NC(=O)[C@H](CCCCN)NC1=O | Gram-positive bacteria |  |  | 24 h, 7 strains |  | MIC geometric mean | 5.9 µg/mL (≈ 3.23 µM) |
| CC(C)(C)N/C=C/c1ccccc1 | Schistosoma mansoni |  | somules and adults | up to 40 µM, 24 h |  | activity | inactive |
| CC[C@H](C)[C@H](NC(=O)[C@H](CCCN)NC(=O)[C@H](CC(N)=O)NC(=O)[C@H](CC(C)C)NC(=O)[C@H](Cc1ccccc1)NC(=O)[C@H](CCCN)NC(=O)[C@H](CCCNC(=N)N)NC(=O)[C@H](CC(C)C)NC(=O)[C@H](CC(C)C)NC(=O)[C@H](CCCN)NC(=O)[C@H](CCCNC(=N)N)NC(=O)[C@H](CC(C)C)NC(=O)CNC(C)=O)C(=O)N[C@@H](CCCN)C(=O)N[C@@H](CCCNC(=N)N)C(N)=O | Gram-positive bacteria |  |  |  |  | geometric mean MIC | 3.13 µM |
| Oc1c(Br)cc(Br)c2nc3c(C(F)(F)F)cc(C(F)(F)F)cc3nc12 | Staphylococcus aureus | Calgary Biofilm Device | MRSA 1 |  |  | MBC | 0.39 µM (≈ 0.191 µg/mL) |
| COc1ccc(/C=N/N=C/c2ccc([N+](=O)[O-])o2)cc1 | Trypanosoma evansi | parasite growth, CellTiter-Glo | Tansui bloodstream form | 72 h |  | IC50 | 4.06 ± 1.5 µM |
| CSc1ccc(SC)c(O)c(=O)c1O | Hepatitis B virus | viral replication, inhibitor | HepDES19 |  |  | EC50 | 8.6 µM |
| C#CCN1CCC23C(=C(C(=O)OC)CC(C(=O)OC)C12)Nc1ccccc13 (stereo not drawn) | Hepatitis B virus | viral replication, inhibitor, qPCR | HePAD38 | 5 µM |  | inhibition | ~30% |
| CC(=O)N[C@H](CCCNC(=N)N)C(=O)N[C@H](CCCNC(=N)N)C(=O)N[C@H](CCCNC(=N)N)C(=O)N[C@H](CCCNC(=N)N)C(=O)N[C@H](CCCNC(=N)N)C(=O)N[C@H](CCCNC(=N)N)C(=O)N[C@H](CCCNC(=N)N)C(=O)N[C@H](CCCNC(=N)N)C(=O)N[C@H](CCCNC(=N)N)C(N)=O | HIV-1 | viral replication, p24 level | human PBMC, NL4-3 | concentration not given |  | inhibition | 85% and > 95% |
| CC[C@H](C)[C@H](NC(=O)[C@H](CC(C)C)NC(=O)[C@@H](N)CS)C(=O)N[C@@H](CCC(=O)O)C(=O)N[C@@H](Cc1ccc(O)cc1)C(=O)NCC(=O)NCC(=O)N[C@@H](C)C(=O)N[C@@H](CC(=O)O)C(=O)N[C@@H](Cc1ccc(O)cc1)C(=O)N[C@@H](CCCCN)C(=O)N[C@H](C(=O)N[C@H](C(=O)N[C@@H](CC(N)=O)C(=O)N[C@@H](CC(C)C)C(=O)N[C@@H](CCCCN)C(=O)O)[C@@H](C)CC)[C@@H](C)O | infectious bursal disease virus | western blot, refers to: phospho-p65 | DT40 cells, IBDV-infected | 50 to 100 nM, 12 h | baseline: IBDV-infected untreated | protein phosphorylation | decreased |
| c1ccc(-c2nc(-c3ccc4ccccc4c3)c[nH]2)cc1 | Schistosoma mansoni | egg laying | worm couples |  |  | lowest concentration reducing egg number | ≥ 5 µM |
| O=C1CC(c2ccc(O)cc2)Oc2cc(O)cc([O][Ga+][O]c3cc(O)cc4c3C(=O)CC(c3ccc(O)cc3)O4)c21 (stereo not drawn) | Pseudomonas aeruginosa |  |  | 40 µM, 2 days, 48 h-old biofilm |  | biofilm eradication | ~50% |

| SMILES | organism | test | system | conditions | scale | endpoint | result |
| --- | --- | --- | --- | --- | --- | --- | --- |
| CC1C=CC=CC(C)C2C=CC3CC(C)(O)C(Cl)C(C)C3C2C(=O)C(Cl)(Cl)C(=O)C(C)C(=O)O1 (stereo not drawn) | Staphylococcus aureus |  | MSSA and MRSA clinical isolates |  |  | MIC90 | 0.1 µg/mL (≈ 0.188 µM) |
| O=C(CCNC(=O)c1ccsc1)Nc1cccc(Oc2ccc(Cl)cc2)c1 | Hepatitis B virus | anti-HBs immunoprecipitation qPCR | HepG2.2.15.7 | 10 µM, 48 h | baseline: control | Dane particle HBV DNA | 61 ± 14% |
| CC(C)C[C@@H]1NC(=O)[C@H](CCCCN)NC(=O)[C@H](C(C)C)NC(=O)[C@@H]2CCCN2C(=O)[C@@H](Cc2ccc(O)cc2)NC(=O)[C@H](CC(C)C)NC(=O)[C@H](CCCCN)NC(=O)[C@H](C(C)C)NC(=O)[C@H](CCCCN)NC(=O)[C@H](CC(C)C)NC(=O)[C@@H]2CCCN2C(=O)[C@@H](Cc2ccc(O)cc2)NC(=O)[C@H](CCCCN)NC1=O | Gram-positive bacteria |  |  | 24 h, 7 strains |  | MIC geometric mean | 1.2 µg/mL (≈ 0.764 µM) |
| CC1(C)NCCC[C@]2(C)[C@H]3CC=C4[C@@H]5C[C@@](C)(CO)CC[C@]5(C)CC[C@@]4(C)[C@]3(C)CC[C@@H]12 | Human alphaherpesvirus 1 | cytopathic effect | HFF, E-377 |  |  | EC90 | > 6 µM |
| O=[N+]([O-])c1ccc(/C=N/N=C/c2ccc([N+](=O)[O-])o2)cc1 | Trypanosoma brucei gambiense | parasite growth, CellTiter-Glo | IL1922 bloodstream form | 72 h |  | IC50 | 1.5 ± 0.28 µM |
| Cc1ncc([N+](=O)[O-])n1CCOCc1nnc(SCC(=O)c2ccc([N+](=O)[O-])cc2)o1 | viridans streptococci |  | DMSO | 60 µg/mL, 24 h, 37 °C |  | inhibition zone diameter | ≥ 20 mm |
| Brc1ccc(-c2c[nH]c(-c3ccccn3)n2)cc1 | Schistosoma mansoni |  | adult male worms | 100 µM |  | worm killing | 100% |
| N[C@H]1C[C@@H]1c1ccc(-c2cccc(O)c2)cc1 | herpes simplex virus 1 | titration on Vero cells | HeLa | 50 µM, 24 h post-infection | baseline: DMSO | viral yield reduction | ~100 fold |
| CC[C@H](C)[C@H](NC(=O)[C@@H](C)NC)C(=O)N1CC[C@@H]2Oc3ccc(OC)c(c3)/C=C\NC(=O)[C@H](C(C)C)NC(=O)[C@H]21 | porcine epidemic diarrhea virus |  | Vero cells |  | baseline: CC50 over EC50 | selectivity index | > 30 |
| C#CCN1CCc2c3n(c4ccccc24)C(=O)C(=C)C3(C(=O)OC)C1 (stereo not drawn) | Hepatitis B virus | viral replication, inhibitor, qPCR | HePAD38 | 5 µM |  | inhibition | ~66% |
| O=[N+]([O-])c1ccc(/C=N/N=C/c2ccccc2)o1 | Trypanosoma brucei gambiense | parasite growth, CellTiter-Glo | IL1922 bloodstream form | 72 h |  | IC50 | 4 ± 1.11 µM |
| CC(=O)Nc1cccc(CNC(=O)c2cnc3ccccc3c2C(F)(F)F)c1 | Drosophila melanogaster | larval locomotor rescue | APP Alzheimer model third-instar larvae | oral in food, dose not given |  | effective concentration | ≥ 1 µM |
| Cc1c(CN(C)C(=O)/C=C/c2cnc3c(c2)CC(N)C(=O)N3)oc2ccccc12 (stereo not drawn) | Acinetobacter baumannii, Klebsiella pneumoniae, Escherichia coli |  | efficacy model strains |  |  | MIC | 4 to 8 µg/mL (≈ 10.2 to 20.5 µM) |
| CCCCSc1ccc(SCCCC)c(O)c(=O)c1O | Hepatitis B virus | viral replication, inhibitor | HepDES19 |  |  | EC50 | 12 µM |
| O=[N+]([O-])c1ccc(/C=N/N=C/c2ccc(O)cc2)s1 | Trypanosoma brucei gambiense | parasite growth, CellTiter-Glo | IL1922 bloodstream form | 72 h |  | IC50 | 0.43 ± 0.14 µM |
| CC[C@H](C)[C@H](NC(=O)[C@H](CCCCN)NC(=O)[C@H](CC(N)=O)NC(=O)[C@H](Cc1c[nH]c2ccccc12)NC(=O)[C@H](Cc1ccccc1)NC(=O)[C@H](CCCCN)NC(=O)[C@H](CCCCNC(=N)N)NC(=O)[C@H](CC(C)C)NC(=O)[C@H](Cc1c[nH]c2ccccc12)NC(=O)[C@H](CCCCN)NC(=O)[C@H](CCCCNC(=N)N)NC(=O)[C@H](CC(C)C)NC(=O)CNC(C)=O)C(=O)N[C@@H](CCCCN)C(=O)N[C@@H](CCCCNC(=N)N)C(N)=O | Gram-positive bacteria |  |  |  |  | geometric mean MIC | 3.13 µM |
| O=c1c(O)c(SCc2ccccc2)ccc(SCc2ccccc2)c1O | Hepatitis B virus | viral replication, inhibitor | HepDES19 |  |  | EC50 | 11 µM |
| COc1ccc(S(=O)(=O)NCc2c[nH]nc2-c2cccs2)cc1 | Plasmodium vivax | reinvasion | 1, human, human red blood cells | 1× EC50, 20 h |  | parasitemia | 0.8 ± 0.1% |
| CC(=O)NC(CC(C)C)C(=O)NC(=O)C(CC(C)C)NC(C=O)CCCN=C(N)N (stereo not drawn) | Plasmodium vivax | parasite growth |  | 100 µM, 40 h |  | inhibition | 82.6 ± 1.2% |

For quick reference, copied from above:
| SMILES | organism | test | system | conditions | scale | endpoint | result |
| --- | --- | --- | --- | --- | --- | --- | --- |
| O=[N+]([O-])c1ccc(/C=N/N=C/c2ccc([N+](=O)[O-])o2)cc1 | Trypanosoma brucei gambiense | parasite growth, CellTiter-Glo | IL1922 bloodstream form | 72 h |  | IC50 | 1.5 ± 0.28 µM |
| Cc1ncc([N+](=O)[O-])n1CCOCc1nnc(SCC(=O)c2ccc([N+](=O)[O-])cc2)o1 | viridans streptococci |  | DMSO | 60 µg/mL, 24 h, 37 °C |  | inhibition zone diameter | ≥ 20 mm |
| Brc1ccc(-c2c[nH]c(-c3ccccn3)n2)cc1 | Schistosoma mansoni |  | adult male worms | 100 µM |  | worm killing | 100% |
| N[C@H]1C[C@@H]1c1ccc(-c2cccc(O)c2)cc1 | herpes simplex virus 1 | titration on Vero cells | HeLa | 50 µM, 24 h post-infection | baseline: DMSO | viral yield reduction | ~100 fold |
| CC[C@H](C)[C@H](NC(=O)[C@@H](C)NC)C(=O)N1CC[C@@H]2Oc3ccc(OC)c(c3)/C=C\NC(=O)[C@H](C(C)C)NC(=O)[C@H]21 | porcine epidemic diarrhea virus |  | Vero cells |  | baseline: CC50 over EC50 | selectivity index | > 30 |
| C#CCN1CCc2c3n(c4ccccc24)C(=O)C(=C)C3(C(=O)OC)C1 (stereo not drawn) | Hepatitis B virus | viral replication, inhibitor, qPCR | HePAD38 | 5 µM |  | inhibition | ~66% |
